Measured values pooled from the literature.
± marks the error that the study gave.
NMT1: Glycylpeptide N-tetradecanoyltransferase 1 (NMT1, Homo sapiens, UniProt P30419)
NR3C1: Glucocorticoid receptor (NR3C1, Homo sapiens, UniProt P04150)

Amino acid sequences for entries named in this document (tags omitted). Residues count along the entry.
UniProt P30419, whole entry: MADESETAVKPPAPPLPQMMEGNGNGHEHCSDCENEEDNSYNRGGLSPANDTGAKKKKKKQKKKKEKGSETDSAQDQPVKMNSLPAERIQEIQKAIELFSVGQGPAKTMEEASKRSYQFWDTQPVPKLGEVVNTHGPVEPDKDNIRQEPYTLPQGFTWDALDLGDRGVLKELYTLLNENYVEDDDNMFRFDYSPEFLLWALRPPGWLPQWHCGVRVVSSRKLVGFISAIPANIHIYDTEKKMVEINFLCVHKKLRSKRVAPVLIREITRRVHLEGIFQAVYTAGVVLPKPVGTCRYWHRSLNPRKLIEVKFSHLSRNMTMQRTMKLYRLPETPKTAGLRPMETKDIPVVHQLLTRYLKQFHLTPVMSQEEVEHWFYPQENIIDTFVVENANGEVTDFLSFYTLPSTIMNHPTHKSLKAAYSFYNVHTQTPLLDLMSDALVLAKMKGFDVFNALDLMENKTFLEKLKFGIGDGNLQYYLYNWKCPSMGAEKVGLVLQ
UniProt P04150, whole entry: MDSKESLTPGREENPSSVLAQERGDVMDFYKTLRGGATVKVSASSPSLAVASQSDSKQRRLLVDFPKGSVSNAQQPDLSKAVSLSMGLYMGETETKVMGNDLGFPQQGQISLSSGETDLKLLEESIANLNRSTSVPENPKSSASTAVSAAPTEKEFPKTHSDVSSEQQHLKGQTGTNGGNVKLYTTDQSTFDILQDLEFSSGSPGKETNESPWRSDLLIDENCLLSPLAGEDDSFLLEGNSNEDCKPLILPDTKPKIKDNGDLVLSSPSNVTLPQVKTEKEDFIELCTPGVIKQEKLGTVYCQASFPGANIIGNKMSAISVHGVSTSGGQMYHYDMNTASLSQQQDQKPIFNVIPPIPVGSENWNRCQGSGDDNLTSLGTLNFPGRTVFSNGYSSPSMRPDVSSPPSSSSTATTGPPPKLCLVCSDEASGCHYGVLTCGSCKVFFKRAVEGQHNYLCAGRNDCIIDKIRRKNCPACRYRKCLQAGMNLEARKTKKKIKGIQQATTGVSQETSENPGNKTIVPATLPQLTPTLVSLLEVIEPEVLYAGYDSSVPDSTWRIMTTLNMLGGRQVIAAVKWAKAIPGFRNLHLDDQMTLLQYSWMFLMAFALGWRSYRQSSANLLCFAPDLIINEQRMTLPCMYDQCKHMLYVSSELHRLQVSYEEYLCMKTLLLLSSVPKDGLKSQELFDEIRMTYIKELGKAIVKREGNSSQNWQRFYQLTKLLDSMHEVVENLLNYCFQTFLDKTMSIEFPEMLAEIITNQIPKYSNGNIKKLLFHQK
UniProt O88531, 28-306 limits assumed: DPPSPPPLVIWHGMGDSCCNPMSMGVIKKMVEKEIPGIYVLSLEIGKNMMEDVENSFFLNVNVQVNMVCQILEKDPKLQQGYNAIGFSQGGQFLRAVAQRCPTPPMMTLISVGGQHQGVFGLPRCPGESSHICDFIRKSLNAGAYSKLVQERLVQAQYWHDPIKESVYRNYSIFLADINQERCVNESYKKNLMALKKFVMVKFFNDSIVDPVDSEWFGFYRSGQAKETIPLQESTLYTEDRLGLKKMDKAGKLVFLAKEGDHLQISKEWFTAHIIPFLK
UniProt O00255, whole entry M278K: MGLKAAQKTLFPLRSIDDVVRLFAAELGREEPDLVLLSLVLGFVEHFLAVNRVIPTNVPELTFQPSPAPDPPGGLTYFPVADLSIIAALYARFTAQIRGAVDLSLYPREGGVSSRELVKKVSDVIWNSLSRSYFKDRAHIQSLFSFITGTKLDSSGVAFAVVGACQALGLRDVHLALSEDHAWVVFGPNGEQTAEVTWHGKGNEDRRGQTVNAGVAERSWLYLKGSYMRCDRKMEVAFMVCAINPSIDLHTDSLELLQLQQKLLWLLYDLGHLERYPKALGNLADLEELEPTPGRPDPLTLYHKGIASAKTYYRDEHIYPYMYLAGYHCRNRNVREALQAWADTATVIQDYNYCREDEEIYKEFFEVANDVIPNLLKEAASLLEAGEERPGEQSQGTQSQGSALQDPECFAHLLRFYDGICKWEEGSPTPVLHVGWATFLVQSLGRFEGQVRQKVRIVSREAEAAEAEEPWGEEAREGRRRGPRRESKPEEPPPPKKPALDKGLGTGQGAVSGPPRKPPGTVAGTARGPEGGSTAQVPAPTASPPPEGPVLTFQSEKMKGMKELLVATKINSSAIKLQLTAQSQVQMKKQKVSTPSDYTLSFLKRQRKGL
UniProt P00519, whole entry: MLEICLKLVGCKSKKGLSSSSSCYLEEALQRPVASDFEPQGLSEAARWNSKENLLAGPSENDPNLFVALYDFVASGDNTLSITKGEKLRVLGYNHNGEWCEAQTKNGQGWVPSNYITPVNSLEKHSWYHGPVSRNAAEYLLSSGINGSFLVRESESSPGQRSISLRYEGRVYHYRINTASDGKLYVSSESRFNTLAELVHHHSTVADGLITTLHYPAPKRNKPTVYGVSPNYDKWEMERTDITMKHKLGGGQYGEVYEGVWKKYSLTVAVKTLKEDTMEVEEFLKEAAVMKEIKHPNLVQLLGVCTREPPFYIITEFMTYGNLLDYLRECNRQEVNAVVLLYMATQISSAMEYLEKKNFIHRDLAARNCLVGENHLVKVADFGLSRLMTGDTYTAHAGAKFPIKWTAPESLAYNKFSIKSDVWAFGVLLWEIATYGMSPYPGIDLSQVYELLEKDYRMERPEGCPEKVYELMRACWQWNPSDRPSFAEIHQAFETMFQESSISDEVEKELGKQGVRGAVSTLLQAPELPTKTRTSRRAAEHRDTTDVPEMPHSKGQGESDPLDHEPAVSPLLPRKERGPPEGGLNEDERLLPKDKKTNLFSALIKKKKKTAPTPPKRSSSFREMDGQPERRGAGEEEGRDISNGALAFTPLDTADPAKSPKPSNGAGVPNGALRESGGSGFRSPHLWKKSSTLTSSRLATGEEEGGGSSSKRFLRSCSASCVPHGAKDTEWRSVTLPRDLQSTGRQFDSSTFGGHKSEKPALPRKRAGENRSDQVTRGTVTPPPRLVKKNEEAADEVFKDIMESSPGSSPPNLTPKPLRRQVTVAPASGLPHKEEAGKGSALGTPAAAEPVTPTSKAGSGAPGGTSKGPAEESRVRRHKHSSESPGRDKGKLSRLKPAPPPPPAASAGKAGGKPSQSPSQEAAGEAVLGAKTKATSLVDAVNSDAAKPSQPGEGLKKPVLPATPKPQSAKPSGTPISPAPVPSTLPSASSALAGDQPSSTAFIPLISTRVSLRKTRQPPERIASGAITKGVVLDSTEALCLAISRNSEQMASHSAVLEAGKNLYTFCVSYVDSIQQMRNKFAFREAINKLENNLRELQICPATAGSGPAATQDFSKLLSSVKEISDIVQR
UniProt P00533, 25-1210 T790M/L858R limits assumed: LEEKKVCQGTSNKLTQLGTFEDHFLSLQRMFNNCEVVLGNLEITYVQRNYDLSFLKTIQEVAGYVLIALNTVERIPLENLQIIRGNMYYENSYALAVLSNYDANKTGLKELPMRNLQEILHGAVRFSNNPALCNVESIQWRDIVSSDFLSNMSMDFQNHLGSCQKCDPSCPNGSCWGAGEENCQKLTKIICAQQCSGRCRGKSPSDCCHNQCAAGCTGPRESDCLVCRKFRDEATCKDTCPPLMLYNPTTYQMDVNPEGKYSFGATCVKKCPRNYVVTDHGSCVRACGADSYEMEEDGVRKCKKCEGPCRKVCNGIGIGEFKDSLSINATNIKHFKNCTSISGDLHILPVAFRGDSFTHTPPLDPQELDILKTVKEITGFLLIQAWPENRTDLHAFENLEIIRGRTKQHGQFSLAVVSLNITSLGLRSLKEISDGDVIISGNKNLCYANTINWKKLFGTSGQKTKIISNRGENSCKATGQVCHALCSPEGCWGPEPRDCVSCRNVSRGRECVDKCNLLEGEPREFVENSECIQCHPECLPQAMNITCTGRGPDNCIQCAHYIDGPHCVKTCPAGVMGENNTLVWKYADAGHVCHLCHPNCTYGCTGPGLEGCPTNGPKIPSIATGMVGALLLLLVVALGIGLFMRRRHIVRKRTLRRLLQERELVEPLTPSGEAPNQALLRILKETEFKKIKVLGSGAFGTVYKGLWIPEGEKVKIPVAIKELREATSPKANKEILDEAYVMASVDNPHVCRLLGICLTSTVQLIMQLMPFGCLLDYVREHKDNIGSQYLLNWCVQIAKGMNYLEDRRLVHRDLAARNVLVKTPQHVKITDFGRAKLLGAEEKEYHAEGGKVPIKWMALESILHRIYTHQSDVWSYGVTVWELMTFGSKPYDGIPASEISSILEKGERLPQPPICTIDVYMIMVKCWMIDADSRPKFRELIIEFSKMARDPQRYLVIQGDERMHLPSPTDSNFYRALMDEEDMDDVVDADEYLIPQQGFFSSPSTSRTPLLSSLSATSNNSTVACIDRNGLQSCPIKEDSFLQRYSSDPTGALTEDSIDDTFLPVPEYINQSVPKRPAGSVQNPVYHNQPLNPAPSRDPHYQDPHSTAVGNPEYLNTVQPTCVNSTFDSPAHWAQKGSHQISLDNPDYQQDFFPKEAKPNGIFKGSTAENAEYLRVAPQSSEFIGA
UniProt P10636, whole entry, looked up: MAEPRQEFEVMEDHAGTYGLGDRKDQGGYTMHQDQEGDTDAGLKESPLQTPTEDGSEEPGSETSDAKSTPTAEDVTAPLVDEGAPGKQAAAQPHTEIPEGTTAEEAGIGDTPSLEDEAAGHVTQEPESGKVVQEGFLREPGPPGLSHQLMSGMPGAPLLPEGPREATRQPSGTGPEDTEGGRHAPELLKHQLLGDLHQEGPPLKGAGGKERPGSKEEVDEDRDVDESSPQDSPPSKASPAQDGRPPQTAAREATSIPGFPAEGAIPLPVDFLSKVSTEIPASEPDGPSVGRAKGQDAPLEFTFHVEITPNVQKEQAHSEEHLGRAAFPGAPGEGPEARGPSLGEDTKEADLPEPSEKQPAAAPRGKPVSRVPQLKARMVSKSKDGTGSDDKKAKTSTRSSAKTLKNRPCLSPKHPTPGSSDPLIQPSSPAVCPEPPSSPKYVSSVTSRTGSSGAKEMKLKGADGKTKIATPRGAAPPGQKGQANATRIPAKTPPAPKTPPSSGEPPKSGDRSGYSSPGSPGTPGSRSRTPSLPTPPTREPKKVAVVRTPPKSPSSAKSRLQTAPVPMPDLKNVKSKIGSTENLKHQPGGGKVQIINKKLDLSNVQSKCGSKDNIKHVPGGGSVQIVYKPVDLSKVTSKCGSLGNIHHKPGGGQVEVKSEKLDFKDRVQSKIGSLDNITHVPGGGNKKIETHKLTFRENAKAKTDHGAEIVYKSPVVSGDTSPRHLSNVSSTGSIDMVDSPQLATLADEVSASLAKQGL
UniProt P03372, whole entry: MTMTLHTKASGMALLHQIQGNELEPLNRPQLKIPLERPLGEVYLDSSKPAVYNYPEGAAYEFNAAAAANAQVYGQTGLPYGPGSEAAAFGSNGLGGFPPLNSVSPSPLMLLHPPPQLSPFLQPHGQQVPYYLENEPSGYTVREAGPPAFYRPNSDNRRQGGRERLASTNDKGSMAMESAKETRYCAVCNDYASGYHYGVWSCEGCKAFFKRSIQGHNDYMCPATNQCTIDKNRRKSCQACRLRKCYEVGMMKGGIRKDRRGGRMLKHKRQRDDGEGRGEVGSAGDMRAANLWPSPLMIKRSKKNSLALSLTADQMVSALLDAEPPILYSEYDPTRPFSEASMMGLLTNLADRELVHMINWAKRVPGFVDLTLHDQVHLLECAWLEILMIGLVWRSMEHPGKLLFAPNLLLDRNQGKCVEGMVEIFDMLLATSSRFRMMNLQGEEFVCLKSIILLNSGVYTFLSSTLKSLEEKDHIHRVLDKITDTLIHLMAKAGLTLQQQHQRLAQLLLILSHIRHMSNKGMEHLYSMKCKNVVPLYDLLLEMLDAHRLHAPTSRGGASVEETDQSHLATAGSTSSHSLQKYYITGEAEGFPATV
UniProt P53004, whole entry, looked up: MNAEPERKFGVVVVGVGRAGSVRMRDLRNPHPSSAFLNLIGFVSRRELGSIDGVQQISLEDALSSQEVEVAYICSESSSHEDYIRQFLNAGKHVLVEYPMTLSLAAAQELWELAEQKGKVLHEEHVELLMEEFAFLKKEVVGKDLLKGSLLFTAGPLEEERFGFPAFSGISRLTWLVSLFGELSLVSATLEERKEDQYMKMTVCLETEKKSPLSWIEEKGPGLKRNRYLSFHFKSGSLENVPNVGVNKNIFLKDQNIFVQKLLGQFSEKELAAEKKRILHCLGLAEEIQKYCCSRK
UniProt Q13304, whole entry: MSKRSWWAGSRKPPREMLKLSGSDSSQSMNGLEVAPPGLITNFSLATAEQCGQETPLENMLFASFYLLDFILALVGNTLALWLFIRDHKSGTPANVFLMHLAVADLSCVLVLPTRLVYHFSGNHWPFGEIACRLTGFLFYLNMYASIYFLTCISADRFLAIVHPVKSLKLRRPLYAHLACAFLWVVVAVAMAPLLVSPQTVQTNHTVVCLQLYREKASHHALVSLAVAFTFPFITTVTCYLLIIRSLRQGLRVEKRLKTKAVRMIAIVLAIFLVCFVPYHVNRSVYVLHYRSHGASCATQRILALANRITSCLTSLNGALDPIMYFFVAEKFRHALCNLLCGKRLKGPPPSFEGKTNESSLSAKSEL

`CC(C)C[C@H](NC(=O)CNC(=O)CN)C(=O)N[C@@H](Cc1ccccc1)C(=O)N[C@@H](CO)C(=O)N[C@@H](CCCNC(=N)N)C(=O)N[C@@H](Cc1c[nH]c2ccccc12)C(=O)N[C@@H](CCCNC(=N)N)C(=O)O` has a Km of 10.3 µM (NMT1; substrate).
For `COc1cc(CC(=O)NCC(NC(=O)C(CCCNC(=O)c2cccc(I)c2)NC(=O)C(Cc2ccc(C(F)(F)P(=O)(O)O)cc2)NC(=O)c2ccc(C)c(Br)c2)C(N)=O)ccc1O` (stereo not shown), inhibition read “no inhibition” (Receptor-type tyrosine-protein phosphatase beta (Homo sapiens, UniProt P23467); enzyme activity; 10 µM).
`O=C(ON1C(=O)C2CN(C(=O)N3CCOCC3)CCN2C1=O)N1CCC(CCc2ccc(Cl)cc2)CC1` (stereo not shown) gave an effective dose of at least 10 mg/kg (Palmitoyl-protein thioesterase 1 (Ppt1, Mus musculus, UniProt O88531); enzyme activity, inhibitor, gel-based ABPP; C57BL/6 mice; intraperitoneal, 4 h).
With `C[C@H](NC(=O)[C@@H](NC(=O)[C@H](CCCCN)NC(=O)[C@H](CO)NC(=O)[C@H](Cc1ccccc1)NC(=O)[C@H](CCC(N)=O)NC(=O)[C@H](C)NC(=O)CN)[C@@H](C)O)C(=O)O` the Km was 38.4 µM (NMT1; substrate).
`O=[N+]([O-])c1ccc(C2Nc3c(cccc3C(F)(F)F)C3C=CCC32)cc1` (stereo not shown): “inhibition of pericellular proteolysis” about 60% (Serine protease hepsin (Hpn, Mus musculus, UniProt O35453); hepsin activity; 50 µM; relative to: vehicle).
The CD15-positive cells of `Cc1cccc(NC(=O)c2nn(Cc3cnc[nH]3)c3c2CN(C(=O)c2ccc[nH]2)CC3)c1` is reported as 0.92 ± 0.4 fold (IDH1 R132C AML cells; granulocytic differentiation, flow cytometry; 3 µM, 6 to 7 days; relative to: DMSO).
For `CC[C@@H]1C(=O)N(C)c2cnc(Nc3ccc(C(=O)NC4CCN(C)CC4)cc3OC)nc2N1C1CCCC1`, the delta Tm was -0.04 ± 0.31 °C (Protein polybromo-1, BD3 (PBRM1, Homo sapiens, UniProt Q86U86); 10 µM).
`CC(C)c1cc2c(N3CCN(C4=NCC(C)(C)S4)CC3)ncnc2s1` — result for binding: “no binding” (Menin (MEN1, Homo sapiens, UniProt O00255, M278K); thermal shift; concentration not given).
For `CCN1CCN(Cc2ccc(NC(=O)c3ccc(C)c(Oc4ncnc5cc(OC)c(OC)cc45)c3)cc2C(F)(F)F)CC1`, “residual probe binding” read 0.2% (ABL1 (Homo sapiens, UniProt P00519); KINOMEscan competition binding; 1.0 µM).
The Km of `C[C@H](NC(=O)[C@@H]1CCCN1C(=O)CNC(=O)[C@H](CO)NC(=O)[C@H](CCC(N)=O)NC(=O)[C@H](CCCCN)NC(=O)[C@H](C)NC(=O)CN)C(=O)O` is reported as 2 µM (NMT1; substrate).
For `CC1=Cc2ccccc2C12CCN(C1Cc3ccccc3CC1O)CC2` (single isomer, unassigned), the selectivity ratio was 10 (SIGMAR1 (Homo sapiens, UniProt Q99720); relative to: Ki sigma2 (rat liver) over Ki sigma1 (human)).
`O=C1CCC(N2C(=O)c3cccc(NCCOCCOCCOCCN4CCN(c5ccc(-c6ccc7c(c6)C(=O)N(C(C(=O)Nc6nccs6)c6ccccc6)C7)cn5)CC4)c3C2=O)C(=O)N1` (stereo not shown) has a Dmax of 59 to 62% (EGFR (Homo sapiens, UniProt P00533, L858R/T790M); degrader, Western blot; Ba/F3 EGFR L858R/T790M; 0.1 µM, 24 h).
`COC(=O)c1c(O)cc(O)c(Cl)c1CCc1ccc(OC)cc1Cc1ccccc1` gave a selectivity ratio of 4 fold (Endoplasmin (HSP90B1, Canis lupus familiaris, UniProt P41148); fluorescence polarization; with: FITC-geldanamycin tracer; relative to: Grp94 over Hsp90α).
`Fc1cccc(-n2cnc3c(NCc4nc5cc(Cl)ccc5[nH]4)nc(N4CCNCC4)nc32)c1` has a remaining binding of 13% (FLT3 (Homo sapiens, UniProt P36888, K663Q); KINOMEscan competition binding; 10 µM; relative to: control).
`C[C@H](NC(=O)[C@H](CC(N)=O)NC(=O)CN)C(=O)N[C@@H](CCC(N)=O)C(=O)N[C@@H](CCC(=O)O)C(=O)N[C@@H](CCCNC(=N)N)C(=O)N1CCC[C@H]1C(=O)N[C@@H](CO)C(=O)O` gave a Km of 1.4 µM (NMT1; substrate).
`Cc1c(O)cc2c(c1C)O[C@](C)(CCCC(C)C)CC2` — result for tumour growth: “inhibited” (athymic nude mouse, LNCaP-abl xenograft; intraperitoneal, 50 mg/kg daily, 21 days; relative to: vehicle).
`C[C@H]1C[C@@H]2[C@H]3CCC4=CC(=O)C=C[C@@]4(C)[C@]3(Cl)[C@@H](Cl)C[C@]2(C)[C@]1(O)C(=O)COP(=O)(O)O` gave a Hill slope of 1.36 (NR3C1; nuclear translocation, agonist, enzyme fragment complementation).
Under “binding affinity decrease”, `CCCCCCCCCCCCCC(=O)O[C@H](CCCCCCCCCCC)CC(=O)O[C@@H]1[C@@H](NC(=O)C[C@@H](CCCCCCCCCCC)OC(=O)CCCCCCCCCCC)[C@H](OC[C@H]2O[C@H](OP(=O)(O)O)[C@H](NC(=O)C[C@H](O)CCCCCCCCCCC)[C@@H](OC(=O)C[C@H](O)CCCCCCCCCCC)[C@@H]2O)O[C@H](CO)[C@H]1OP(=O)(O)O` is recorded as about 5 fold (msbA (Escherichia coli, UniProt P60752); fluorescence quenching; concentration not given, 23 °C, daunorubicin site occupied first; relative to: daunorubicin site empty over occupied).
`C[C@@]12CCC(=O)C=C1CC[C@H]1C2[C@@H](O)C[C@]2(C)[C@@H]1CC[C@@]2(O)C(=O)COC(=O)C1CCCC1` (stereo partly shown) gave a maximal activity of 100% (NR3C1; nuclear translocation, agonist, enzyme fragment complementation).
`O=C(Nc1cccnn1)N1CC(Oc2ccc(-c3ccccc3F)cn2)C1`: “time to return to baseline” at most 72 h (item: plasma endocannabinoids; human, plasma; oral, after day 7 dose, repeated daily dosing).
For `Fc1cc(-c2ccc3c(n2)[nH]c2ccncc23)ccn1` [isotope labelled], the specific binding was 18.2 a.u. (Microtubule-associated protein tau, paired helical filaments (MAPT, Homo sapiens, UniProt P10636); radioligand binding; PHF tau brain homogenate; 200 nM; higher = more binding).
`C[C@H]1C[C@H]2[C@H]3CCC4=CC(=O)C=C[C@@]4(C)[C@]3(F)[C@H](O)C[C@]2(C)[C@@]1(O)C(=O)COP(=O)(O)O` has a maximal activity of 200% (NR3C1; nuclear translocation, agonist, enzyme fragment complementation).
The Km of `CC[C@H](C)[C@H](NC(=O)CNC(=O)[C@H](CCCNC(=N)N)NC(=O)[C@@H](NC(=O)[C@@H](NC(=O)[C@H](CC(C)C)NC(=O)[C@H](C)NC(=O)CN)C(C)C)[C@@H](C)CC)C(=O)O` is reported as 0.5 µM (NMT1; substrate).
For `O=c1c(O[C@@H]2O[C@H](CO)[C@@H](O)[C@H](O)[C@H]2O)c(-c2cc(O)c(O[C@@H]3O[C@H](CO)[C@@H](O)[C@H](O)[C@H]3O)c(O)c2)oc2cc(O)cc(O)c12`, the selectivity ratio was 1.17 (Estrogen receptor (ESR1, Homo sapiens, UniProt P03372); DNA binding array formation, PRL-HeLa cells; relative to: EC50 ERβ over EC50 ERα).
`CCc1c(-c2ccccc2)nn2c(=O)cc(-c3cccc(C(=O)O)c3)[nH]c12` gave a remaining activity of 97% (BLVRA (Homo sapiens, UniProt P53004); enzyme activity, inhibitor; 10 µM, with: biliverdin IXα 25 µM).
`Cn1cc2c(nc(NCCCNC(=S)Nc3ccc(-c4c5ccc(=O)cc-5oc5cc(O)ccc45)c(C(=O)O)c3)n3nc(-c4ccco4)nc23)n1` has an inhibition of 5 ± 2% (ADORA1 (Homo sapiens, UniProt P30542); binding; CHO; 10 µM, with: [3H]R-PIA).
`O=C1C=C(NCCc2cc(Br)c(O)c(Br)c2)C(=O)c2ncccc21` — result for actin binding: “inhibited” (Ezrin (Ezr, Mus musculus, UniProt P26040); item: ezrin; K7M2; 10 µM, 6 h).
`O=C(Nc1ccc(Cl)cc1)C(NS(=O)(=O)c1cccs1)c1ccccc1` (single isomer, unassigned) gave a Schild slope of 0.81 (GPR17 (Homo sapiens, UniProt Q13304); β-arrestin recruitment, antagonist, HTRF; 1321N1 expressing target).

For quick reference, copied from above:
`C[C@@]12CCC(=O)C=C1CC[C@H]1C2[C@@H](O)C[C@]2(C)[C@@H]1CC[C@@]2(O)C(=O)COC(=O)C1CCCC1` (stereo partly shown) gave a maximal activity of 100% (NR3C1; nuclear translocation, agonist, enzyme fragment complementation).
`O=C(Nc1cccnn1)N1CC(Oc2ccc(-c3ccccc3F)cn2)C1`: “time to return to baseline” at most 72 h (item: plasma endocannabinoids; human, plasma; oral, after day 7 dose, repeated daily dosing).
